Experimental data collected from several papers.
A part holds a random share of what one study measured.

Study 1
Target: PABPC1L2, full length, GST fusion (mouse, UniProt A0ABA7IW68)
Method: RNAcompete
Form: RNA
Matrix: in vitro
Concentration: 20 nM
Notes: 7-mer, probes averaged, single round
Reference: mean of 7-mers
Direction: higher = stronger binding
Target sequence (chain): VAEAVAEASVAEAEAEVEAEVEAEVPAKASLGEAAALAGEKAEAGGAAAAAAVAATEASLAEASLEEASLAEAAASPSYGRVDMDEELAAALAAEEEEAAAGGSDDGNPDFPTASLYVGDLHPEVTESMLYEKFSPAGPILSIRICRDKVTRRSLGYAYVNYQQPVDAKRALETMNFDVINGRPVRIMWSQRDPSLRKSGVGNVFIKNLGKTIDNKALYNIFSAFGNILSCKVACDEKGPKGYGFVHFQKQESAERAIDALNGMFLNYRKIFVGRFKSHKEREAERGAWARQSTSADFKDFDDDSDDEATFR
| Strand | 7-mer Z-score |
| --- | --- |
| UCCCUAU | -0.4 |
| AUGAAAA | 3.01 |
| ACUUAAU | -0.0609 |
| CGAAUGC | -0.177 |
| UGGUUCG | -0.296 |
| AACAGAC | 0.515 |
| ACACUCC | -0.18 |
| AACCCGA | 0.0968 |
| UUGGCAA | 0.532 |
| AUACCAC | -0.0953 |
| GGCGUAG | 0.0805 |
| UGAGCAC | -0.153 |
| GGUGCAG | 0.164 |
| GAUAAGU | -0.0428 |
| AGCGCAC | -0.0355 |
| CCGUGGU | -0.224 |
| CAAUGCC | -0.195 |
| CAACUCA | -0.255 |
| GAUCAAU | 0.0334 |
| GCUCGAC | -0.253 |

Study 2
Target: Histone acetyltransferase KAT6A, both winged helices, GST fusion (KAT6A, Homo sapiens, UniProt Q92794, residues 1-181)
Method: protein binding microarray
Form: double-stranded DNA, one strand shown
Matrix: in vitro
Concentration: not given
Notes: 8-mer, flanks averaged, mean of 2 arrays, mostly near background
Reference: not given
Direction: higher = stronger binding
Residues (chain): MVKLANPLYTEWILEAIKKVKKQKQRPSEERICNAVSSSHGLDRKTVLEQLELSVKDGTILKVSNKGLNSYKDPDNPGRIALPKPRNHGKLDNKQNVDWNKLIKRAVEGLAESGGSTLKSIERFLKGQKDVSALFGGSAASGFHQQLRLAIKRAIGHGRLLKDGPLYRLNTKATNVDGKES
| Strand | E-score |
| --- | --- |
| TGGTGGAA | -0.149 |
| CAGCTAAA | -0.067 |
| GTATTCGA | -0.107 |
| ACATGTTG | -0.0276 |
| ATGGTAGC | 0.025 |
| CAGTTCAA | -0.00859 |
| CTCATTGC | -0.146 |
| GCATGCCA | -0.0955 |
| ACATGCTA | -0.0945 |
| GTGTCGTA | -0.064 |
| TAGATGCA | -0.0907 |
| ACCGCAAA | 0.19 |
| ATGACTGA | -0.103 |
| ACTGGGCC | -0.0768 |
| CGCTACCG | 0.311 |
| TATACGGA | 0.157 |
| TAAGCCAA | -0.131 |

Study 3
Target: Prothrombin, mature alpha-thrombin (F2, Homo sapiens, UniProt P00734)
Method: aptamer microarray, sandwich
Form: DNA with 2'F-ANA
Matrix: in vitro
Concentration: 200 nM
Notes: whole 15-mer aptamer, many near background
With: Cy3 exosite-II aptamer, 400 nM
Direction: higher = stronger binding
Strand: GGTTGGTGTGGTTGG
| Modification | mean fluorescence intensity |
| --- | --- |
| 2'F-ANA at 1 3 4 5 8 10 11 13 15 | 44.1 a.u. |
| 2'F-ANA at 1 3 7 8 9 10 12 13 | 128 a.u. |
| 2'F-ANA at 1 2 4 6 7 9 10 11 15 | 50.4 a.u. |
| 2'F-ANA at 2 3 4 5 7 8 9 10 12 15 | 61.9 a.u. |
| 2'F-ANA at 7 9 10 11 | 189 a.u. |
| 2'F-ANA at 4 7 8 11 12 13 14 | 221 a.u. |
| 2'F-ANA at 3 5 6 7 10 12 14 | 54.7 a.u. |
| 2'F-ANA at 1 5 7 9 11 12 | 156 a.u. |
| 2'F-ANA at 6 8 9 11 12 13 14 | 194 a.u. |
| 2'F-ANA at 3 5 6 7 10 11 14 | 56.6 a.u. |
| 2'F-ANA at 1 2 5 6 7 10 11 13 | 48 a.u. |
| 2'F-ANA at 1 2 3 4 6 8 10 11 14 15 | 52.5 a.u. |
| 2'F-ANA at 1 2 4 6 10 11 12 14 | 63.8 a.u. |
| 2'F-ANA at 1 2 6 9 10 11 13 | 50.3 a.u. |
| 2'F-ANA at 2 3 4 5 6 8 9 10 12 13 14 | 51.6 a.u. |
| 2'F-ANA at 2 3 8 10 12 13 | 455 a.u. |
| 2'F-ANA at 1 2 4 5 10 12 14 15 | 43.6 a.u. |
| 2'F-ANA at 3 4 8 12 14 15 | 454 a.u. |
| 2'F-ANA at 2 3 6 7 10 11 12 15 | 372 a.u. |
| 2'F-ANA at 1 2 3 5 8 9 15 | 69.3 a.u. |
| 2'F-ANA at 1 3 4 5 6 9 10 12 13 14 | 53.2 a.u. |
| 2'F-ANA at 1 2 9 10 11 12 13 15 | 69.3 a.u. |

Study 4
Target: RING finger protein unkempt homolog, zinc fingers 1-6, SBP tag (UNK, Homo sapiens, UniProt Q9C0B0, residues 30-357)
Chain of UniProt Q9C0B0 (30-357, looked up): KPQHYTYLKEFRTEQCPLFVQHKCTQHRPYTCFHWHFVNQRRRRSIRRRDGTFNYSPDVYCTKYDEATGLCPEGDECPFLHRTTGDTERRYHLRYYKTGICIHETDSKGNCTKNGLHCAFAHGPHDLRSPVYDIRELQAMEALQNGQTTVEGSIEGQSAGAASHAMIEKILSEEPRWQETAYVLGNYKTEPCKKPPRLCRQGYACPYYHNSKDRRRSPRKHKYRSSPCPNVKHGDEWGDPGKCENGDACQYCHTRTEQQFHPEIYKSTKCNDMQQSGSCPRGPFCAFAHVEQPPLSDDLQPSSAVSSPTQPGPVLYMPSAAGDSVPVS
Method: RNA Bind-n-Seq
Form: RNA
Matrix: in vitro
Concentration: 100 nM
Notes: RNA with constant flanks, vertebrate orthologous sites, ends assumed
Reference: input RNA pool
Direction: higher = stronger binding
Constant ends, left off below: GGGAGUUCUACAGUCCGACGAUC … CAACAGAGGAUUGAGCAUCA
| Strand | bound/input enrichment [ratio] |
| --- | --- |
| AGCACCCCACGGAUUCAGGACUGGUUUUACAAAUACACCAAGUAGAUAUGGAAGUAACAGCAGAAUUGGACAACCAAGGCCAUGAUGUACUGUAACUUACUUUUACGAGGAUUAUUGACU | 0.349 |
| AAAUCUACUUCAUGCCUUGGACUCCAUAUAGGACAGACACAUUAAUCGAAUAUUCCUCCCUGGAUGACGUCCAAAACGCCCGGCAGACCAUCACCUACAAGCUGCCUCACCGGGUGGACG | 0.425 |
| AGUUUGUAUGUACAUUAUUCACAUUCCUCUCUGAUGUGUUUGGGGGAAAAAAAGACAUUUUAGCCUUUUUUAAGGUUAUUGACUUAAUUUCAUGUUAUUUGGUUGCAUGAAGUUGCCCUU | 0.362 |
| AGCUUCUGGCGACAUUUGGCCCGGCCUUUCAGCGUAUGAUAACAGUCCAAGGUCACCCCAUAGUCCUUCUAUUGCCACCCCACCUAGCCAGAGUUCAUCUUGCUCUGAUGCCCCUCUGCU | 0.71 |
| UCAGACCUAAGCCAACAGCAGUUCUAAAAUGCUAUUUAUUUGUGUCUGUAAGUUUGUACAUAGUAAUAUCAACCUCAUAUUGUUGCAGUUUUUUUUUUCCAUGAGUUUGAGUUUUGCUUU | 0.511 |
| ACCUCAACUUGUUCUAGCUUGCAAUCCUUCAAAGUUGGAUCAUGCAUUAAUGCUAGGUAUUAGGAAUUUUUACUUCUCUCUCUCCACUGAUCAGAGAAACAGACAUUAACAACAGAAGUA | 0.835 |
| CCCUCUGAACCCCAUAUCUUCUGUCUCAUAGUGCAGAAGUAUUCUUUUCAGUUAUAUUACUAGUGGACUUGUUUUAAUUUUAGAGAACUUCAGUACGGAUACUGUGAGCUUACAUGGAAA | 2.07 |
| GCAUGCACAUGCCGCUGUCACCAAAAGCAAACACGGUCUUCAGAAUCUCCAAUAGCAUUUUUAGUAUUCUCUCCCUCUUUCCCUUCUGUUUCCCUAAUGCUUUAAAUGAUUAGAAGUCCU | 4.19 |

Study 5
Target: RNA binding protein fox-1 homolog 2, RRM domain, GST-SBP tag (RBFOX2, Homo sapiens, UniProt O43251-10, residues 100-194)
Method: RNA Bind-n-Seq
Form: RNA
Matrix: in vitro
Concentration: 365 nM
Notes: natural RNA segment, single round, ends assumed
Reference: no-protein control
Direction: higher = stronger binding
Constant ends, left off below: GGGAGUUCUACAGUCCGACGAUC … UGGAAUUCUCGGGUGCCAA
Construct (chain): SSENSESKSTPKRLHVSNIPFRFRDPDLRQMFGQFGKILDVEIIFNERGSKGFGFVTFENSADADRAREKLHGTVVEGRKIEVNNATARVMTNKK
| Strand | RBNS enrichment (R) |
| --- | --- |
| ACGGUCGUAUUUUCCUCCCUACCCGCCAAGUCAUCCUUUCUACUGCUUUUGAGGCCCUCCCUCAGCUCUCUGUGGGUAGGGGUUACAAUUCACAUUCCUUAUUCUGAGAA | 0.291 |
| CCCCAAGCCAGAGAGCCAGAAGCCAUCACCCAAUGACCGCCCCUUCCUUCCGGUCUACAAGAGCUCUCAAGGCUGGGUCUGCCACCACUCUGCUUUGCCCAAGUGUGACA | 0.88 |
| GGCCCUCGGGCCACUUGGUGGAAGGACCCUAAGCACACUGUUCAUGAAGAACACAGGGAUAAAGCAAAGGCCAUCAUGCCGCAGACUGGAGCCACCUGGAAGCCACUCCA | 0.377 |
| UGAGCAACAUCCCUAGCCUUCAGAAUAGAAUUUUUGAUGUUGGAAAUCCUGUAUUUAAAGGAAACCUUAAUUAUCAAUGGAUUUAUGAAGGAAAGUUAAAAACAAAUAUG | 0.475 |
| UUUUGAGGGGCUCAGAAAAUAGGAUUCAGUGUGUAACAUAACAGGUAGGUUGUCAGCAUGCUUGGCAUUCUUCUGUUUUCCUUACCGUUUUACAGACUAUGAAGCUGAGG | 8.36 |
| AGUUGUAUUUUUAUCUAAUGCCAUUUUAGAAUUUUCUAAGGGAAUUUAAUGAAUUCACAUGAAAGGGGUAGUCUGAGUGACACAGUUCCCCACUCCGUACUGUAUUUUGC | 0.636 |
| UAGAAGUCCCCCUUGAAUGACCCCCAGAGCCCCUCUGAGAAGGGCUGGAGUUUGGGGGAAGGGGAUGGCUGGAUGUGCUCCAGGCCAUGCUGGAGGUACCCCCGAGGCAC | 1.4 |
| CUUAUUGAUGAAAGAAACCGUCUUUGCGUUACACCCGAGUCUGCCUCUCGGAGCAGGGAGCUCACCUUCCGCGACGUGUUCUGAGGGUCUGCAUCUUAGGGGGGAGGGCU | 0.573 |

Repeated from above (study 1):
| Strand | 7-mer Z-score |
| --- | --- |
| GGCGUAG | 0.0805 |
| UGAGCAC | -0.153 |
| GGUGCAG | 0.164 |
| GAUAAGU | -0.0428 |
| AGCGCAC | -0.0355 |
| CCGUGGU | -0.224 |
| CAAUGCC | -0.195 |
